Experimental data collected from several papers.
Protocols differ between the studies behind these lines. ± marks the error that the study gave.

Substance = CC(C)C[C@H](NC(=O)[C@H](Cc1ccccc1)NC(=O)[C@@H]1CCCN1C(=O)[C@H](CC(=O)O)NC(=O)[C@H](CC(N)=O)NC(=O)[C@H](CS)NC(=O)[C@H](Cc1ccccc1)NC(=O)[C@H](CCC(N)=O)NC(=O)[C@H](Cc1ccccc1)NC(=O)[C@H](CCC(=O)O)NC(=O)[C@@H](N)CS)C(=O)NCC(=O)N[C@H](C(=O)N[C@@H](Cc1ccc(O)cc1)C(=O)N[C@@H](Cc1ccc(O)cc1)C(=O)O)C(C)C; cell line = human PBMC CD4 T cells; assay = AIM; quantity = responding donors; value = 27%
Substance = OCCN1CCN(CCC=C2c3ccccc3Sc3ccc(C(F)(F)F)cc32)CC1; cell line = Huh-7; assay = pseudovirus entry; system = MERS-CoV spike pseudovirus; quantity = EC50; value = 1.68 ± 0.22 µM
Substance = O=C1NCN(c2ccccc2)C12CCN(CCCOc1ccc(F)cc1)CC2; cell line = HeLa; assay = Ebola VLP entry; quantity = maximal inhibition; value = 76%
Substance = CNC(=O)[C@@H](NC(=O)[C@H](CC(C)C)[C@H](O)C(=O)NO)C(C)(C)C; cell line = C2C12; conditions = 1 µM, with: PB venom; scale = baseline: venom alone; quantity = viability difference; value = 9.35%
Substance = CC1=C(C(=O)OCCc2ccccc2)C(c2ccccc2[N+](=O)[O-])C2=C(CCCC2=O)N1 (stereo not drawn); cell line = HEK293T; assay = pseudovirus entry; system = SARS-CoV spike pseudotyped HIV-1; conditions = 72 h; quantity = EC50; value = > 50 µM
Substance = O=C(CCC1CCN(Cc2ccccc2)CC1)c1ccc2c(c1)NCCCC2; cell line = HeLa; assay = Ebola VLP entry; quantity = IC50; value = 10.9 µM
Substance = CC(C)C[C@H](NC(=O)CNC(=O)[C@H](Cc1ccccc1)NC(=O)[C@H](CO)NC(=O)[C@H](CC(N)=O)NC(=O)[C@H](Cc1c[nH]c2ccccc12)NC(=O)[C@H](CC(N)=O)NC(=O)[C@@H](N)Cc1ccc(O)cc1)C(=O)N[C@@H](CCCNC(=N)N)C(=O)N[C@@H](Cc1ccc(O)cc1)C(N)=O; cell line = GnRH neurons; assay = depolarization, agonist; conditions = room temperature, with: TTX 1 µM; quantity = EC50; value = 0.00332 ± 2e-05 µM
Substance = CN1CCCC(n2nc(Cc3ccc(Cl)cc3)c3ccccc3c2=O)CC1 (stereo not drawn); cell line = Huh-7; assay = pseudovirus entry; system = MERS-CoV spike pseudovirus; quantity = EC90; value = > 20 µM
Substance = SATSFPPSYESVARG; cell line = human DRG neurons; system = peptide; conditions = 10 µM, 24 h, +20 mV, with: 250 nM TTX; quantity = TTX-resistant current density; value = decreased
Substance = COc1cc(Nc2c(C#N)cnc3cc(OCCCN4CCN(C)CC4)c(OC)cc23)c(Cl)cc1Cl; cell line = Huh-7; assay = pseudovirus entry; system = MERS-CoV spike pseudovirus; quantity = EC90; value = 2.44 ± 1.38 µM
Substance = CNCCCC1c2ccccc2C=Cc2ccccc21; cell line = HeLa; assay = Ebola VLP entry; quantity = IC50; value = 12.2 µM
Substance = CN(C)CCOc1ccc(/C(=C(/CCCl)c2ccccc2)c2ccccc2)cc1; cell line = Huh-7; assay = pseudovirus entry; system = MERS-CoV spike pseudovirus; quantity = EC50; value = 3.49 ± 0.44 µM
Substance = CC[C@H](OC(C)=O)C(C[C@H](C)NC)(c1ccccc1)c1ccccc1; cell line = HeLa; assay = Ebola VLP entry; quantity = IC50; value = 7.96 µM
Substance = COc1ccc(-c2ccc3c(N)c(C(=O)Nc4cc(F)ccc4F)sc3n2)cc1; cell line = ScN2a-cl3; assay = PrPSc level; quantity = EC50; value = > 10 µM
Substance = C[C@@H](C1=C(CCN(C)C)Cc2ccccc21)c1ccccn1; cell line = HeLa; assay = Ebola VLP entry; quantity = IC50; value = 15.3 µM
Substance = Nc1ncnc2c1cnn2-c1ccccc1; cell line = mouse cerebrocortical neurons; conditions = 10 µM, with: NMDA 3 µM and PbTx-2 30 nM; quantity = NMDA Ca2+ influx potentiation; value = no effect
Substance = CN1CCCN(C(c2ccccc2)c2ccc(Cl)cc2)CC1.Cl.Cl (stereo not drawn); cell line = HeLa; assay = Ebola VLP entry; quantity = maximal inhibition; value = 95%
Substance = CCc1c(C(=O)C(N)=O)c2c(OCC(=O)O)cccc2n1Cc1ccccc1; cell line = C2C12; conditions = 1 µM, with: TN venom; scale = baseline: venom alone; quantity = viability difference; value = 7.54%
Substance = CC(C)C[C@H]1[C@@H](c2ccccc2)OC(=O)N1CCCN1CCCCCC1; cell line = HeLa; assay = Ebola VLP entry; quantity = IC50; value = 19.3 µM
Substance = CC(CN(C)C)CN1c2ccccc2Sc2ccccc21 (stereo not drawn); cell line = Huh-7; assay = pseudovirus entry; system = MERS-CoV spike pseudovirus; quantity = EC90; value = 3.78 ± 1.54 µM
Substance = COc1ccc(-c2ccc3c(N)c(C(=O)Nc4ccc(OC)c(OC)c4)sc3n2)cc1; cell line = ScN2a-cl3; assay = PrPSc level; quantity = EC50; value = > 10 µM
